Measurements pooled from the literature.
Lines come from different studies, so protocols differ. ± gives the spread as reported.
DRD2: D(2) dopamine receptor (DRD2, Homo sapiens, UniProt P14416)
Chain of UniProt P14416 (whole entry, unmodified, looked up): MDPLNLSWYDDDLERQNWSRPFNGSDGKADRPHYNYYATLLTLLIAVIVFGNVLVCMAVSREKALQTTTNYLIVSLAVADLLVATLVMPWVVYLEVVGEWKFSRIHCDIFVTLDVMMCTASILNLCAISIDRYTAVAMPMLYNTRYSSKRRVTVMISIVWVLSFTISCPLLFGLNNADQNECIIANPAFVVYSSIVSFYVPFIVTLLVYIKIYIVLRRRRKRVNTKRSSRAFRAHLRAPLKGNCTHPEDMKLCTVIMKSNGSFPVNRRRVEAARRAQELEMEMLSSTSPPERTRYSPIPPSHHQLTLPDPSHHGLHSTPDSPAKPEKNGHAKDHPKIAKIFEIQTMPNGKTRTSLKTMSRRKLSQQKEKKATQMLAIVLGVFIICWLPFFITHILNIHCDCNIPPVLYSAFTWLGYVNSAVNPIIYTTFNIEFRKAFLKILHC

Compound | target | test | system | conditions | quantity | value
COc1cc2c(cc1OC)C(=O)N(CCCCN1CCN(c3ccccc3OC)CC1)C2 | DRD2 | antagonist | – | – | IC50 | 3.98 µM
Cc1cccc(C(=O)NCN2CCN(c3ccccc3C#N)CC2)c1 | DRD2 (Homo sapiens, UniProt P14416, F110L/V111M) | binding | COS-7 membranes | mutant receptor, added: [3H]methylspiperone 0.5 nM | Ki | 0.041 ± 0.0044 µM
Cc1[nH]c(C)c(S(=O)(=O)Nc2ccc(C(=O)C3CC3)c(Cl)c2)c1C(=O)N1CCC(F)(F)C1 | DRD2 | – | – | – | IC50 | > 100 µM
CS(=O)(=O)C1(CNCc2cccc3cccnc23)CC1 | DRD2 | receptor activation, agonist, Tango β-arrestin | – | – | EC50 | > 1 µM
Cc1[nH]c(C)c(S(=O)(=O)Nc2ccnc3c(C(F)(F)F)cccc23)c1C(=O)N1CCC(F)(F)C1 | DRD2 | – | – | – | IC50 | > 100 µM
CCn1c(-c2nc3ccc(C(=O)N4CCCC(N)C4)cc3n2C)cc2ccccc21 (stereo not drawn) | DRD2 | antagonist, GTPγS LEADseeker | – | – | IC50 | 31.6 µM
CNC(=O)[C@@]12C[C@@H]1[C@@H](n1cnc3c(NC)nc(C#Cc4cccs4)nc31)[C@H](O)[C@@H]2O | DRD2 | radioligand binding (PDSP) | – | – | Ki | > 10 µM
CCn1c(-c2nc3cc(C(=O)N4CCC[C@@H](N)C4)cc(OC)c3n2C)cc2cccnc21 | DRD2 | agonist, GTPγS binding | – | – | EC50 | > 100 µM
Cc1[nH]c(C)c(S(=O)(=O)Nc2ccc(C3(C)CCO3)c(Cl)c2)c1C(=O)N1CCC(F)(F)C1 (stereo not drawn) | DRD2 | – | – | – | IC50 | > 100 µM
